Published values gathered from unrelated publications.
Each line is one published result; not all experiments were run side by side.

C=C(C)[C@@H]1CC[C@]2(C(=O)O)CC[C@]3(C)[C@H](CC[C@@H]4[C@@]5(C)CC[C@H](O)C(C)(C)[C@@H]5CC[C@]43C)[C@@H]12 — MIC (Nakaseomyces glabratus; broth microdilution; clinical isolate; 48 h, 37 °C): 500 µg/mL
CC1(C)SC2C(NC(=O)C(NC(=O)C3=C(O)C(Cc4ccsc4)NC3=O)c3ccccc3)C(=O)N2C1C(=O)O (stereo not drawn) — MIC (Escherichia coli; broth microdilution; BW25113, Mueller-Hinton broth; added: CCCP 50 µg/mL): 25 µg/mL
CC[C@@H]([C@H](C)O)n1ncn(-c2ccc(N3CCN(c4ccc(OC[C@@H]5CO[C@@](Cn6cncn6)(c6ccc(F)cc6F)C5)cc4)CC3)cc2)c1=O — MIC (Nakaseomyces glabratus; microbial growth; ATCC2001; 72 h): 3.12 µM
CC1(C)SC2C(NC(=O)C(NC(=O)C3=C(O)C(c4ccccc4)NC3=O)c3ccccc3)C(=O)N2C1C(=O)O (stereo not drawn) — MIC (Escherichia coli; broth microdilution; BW25113, Mueller-Hinton broth; added: 2,2'-bipyridyl 30 µg/mL): 50 µg/mL
C=C(C)[C@@H]1CC[C@]2(C)CC[C@]3(C)[C@H](CC[C@@H]4[C@@]5(C)CC[C@H](O)C(C)(C)[C@@H]5CC[C@]43C)[C@@H]12 — MIC (Nakaseomyces glabratus; broth microdilution; clinical isolate; 48 h, 37 °C): 500 µg/mL
CC1(C)SC2C(NC(=O)C(NC(=O)C3=C(O)C4CCCN4C3=O)c3ccccc3)C(=O)N2C1C(=O)O (stereo not drawn) — MIC (Escherichia coli; broth microdilution; BW25113, Mueller-Hinton broth): 200 µg/mL
Cc1ccc(C(C)C)cc1.Cc1ccc(C(C)C)cc1.[Cl][Ru][Cl].[Cl][Ru][Cl] — MIC (Proteus vulgaris; broth microdilution; ATCC 8427; 24 to 48 h, 37 °C): > 1000 µg/mL
O=C(O)c1cn(C2CC2)c2cc(N3CCNCC3)c(F)cc2c1=O — MIC (Klebsiella aerogenes): 0.5 µg/mL
CTCATACTGA — MIC (Salmonella enterica Typhimurium; bacterial growth, broth microdilution; peptide, SL1344, MHB; 24 h, 37 °C): 5 µM
CC1(C)S[C@@H]2[C@H](NC(=O)[C@H](N)c3ccccc3)C(=O)N2[C@H]1C(=O)O — MIC (Streptococcus pyogenes; broth microdilution; MTCC 442, Mueller-Hinton broth; 48 h, 37 °C): 100 µg/mL
CTCATACTCT — MIC (Salmonella enterica Typhimurium; bacterial growth, broth microdilution; peptide, SL1344, MHB; 24 h, 37 °C): 1.25 µM
COc1ccc(-c2nc3cc(-c4nc5cc(N6CCN(C)CC6)ccc5[nH]4)ccc3[nH]2)cc1 — MIC (Nakaseomyces glabratus; fungal growth; ATCC 2001; MIC-0 endpoint): 3.9 to 7.8 µg/mL

Excerpt of the above:
CC1(C)SC2C(NC(=O)C(NC(=O)C3=C(O)C(Cc4ccsc4)NC3=O)c3ccccc3)C(=O)N2C1C(=O)O (stereo not drawn) — MIC (Escherichia coli; broth microdilution; BW25113, Mueller-Hinton broth; added: CCCP 50 µg/mL): 25 µg/mL
